Values quoted from earlier work that unrelated publications cite.
Each numbered part shows a few of the values that one paper quotes. Numbers after ± are the reported error.

By UniProt entry, the sequences of proteins in these tests, tags left out.
UniProt Q99816, whole entry, looked up: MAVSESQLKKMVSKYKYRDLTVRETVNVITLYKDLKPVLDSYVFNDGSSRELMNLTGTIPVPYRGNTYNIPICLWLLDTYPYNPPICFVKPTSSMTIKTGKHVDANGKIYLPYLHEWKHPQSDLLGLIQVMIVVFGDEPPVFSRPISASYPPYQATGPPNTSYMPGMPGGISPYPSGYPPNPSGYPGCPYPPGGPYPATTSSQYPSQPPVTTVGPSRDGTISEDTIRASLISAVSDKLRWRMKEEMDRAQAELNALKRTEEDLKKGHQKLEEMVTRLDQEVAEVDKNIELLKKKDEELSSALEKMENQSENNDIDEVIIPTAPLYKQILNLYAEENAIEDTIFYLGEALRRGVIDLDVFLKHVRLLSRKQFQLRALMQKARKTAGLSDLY
UniProt P0DOF5, whole entry: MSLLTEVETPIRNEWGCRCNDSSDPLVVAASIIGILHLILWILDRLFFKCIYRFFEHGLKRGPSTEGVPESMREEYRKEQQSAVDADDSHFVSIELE

Series 1
Target: HLA class I histocompatibility antigen, A alpha chain, allele A*25:01 (Homo sapiens, UniProt P04439)
`CSCC[C@H](NC(=O)[C@H](CC(C)C)NC(=O)[C@H](CCSC)NC(=O)[C@@H](N)Cc1ccc(O)cc1)C(=O)NCC(=O)N[C@@H](Cc1ccccc1)C(=O)N[C@@H](CCC(N)=O)C(=O)N[C@@H](CC(C)C)C(=O)N[C@@H](CCCCN)C(=O)O` gave an IC50 of greater than 20 µM.
`C[C@H](NC(=O)[C@H](CCC(N)=O)NC(=O)[C@@H](N)Cc1ccccc1)C(=O)NCC(=O)N[C@@H](Cc1c[nH]c2ccccc12)C(=O)N[C@@H](CCC(=O)O)C(=O)N[C@@H](CC(=O)O)C(=O)N1CCC[C@H]1C(=O)N[C@H](C(=O)O)[C@@H](C)O` gave an IC50 of greater than 20 µM.
`CSCC[C@H](NC(=O)[C@H](CCCCN)NC(=O)[C@@H]1CCCN1C(=O)[C@H](CC(=O)O)NC(=O)[C@H](CCCCN)NC(=O)[C@H](CCSC)NC(=O)[C@@H](N)CCCCN)C(=O)N[C@@H](Cc1ccc(O)cc1)C(=O)N[C@@H](Cc1c[nH]cn1)C(=O)O` gave an IC50 of greater than 20 µM.
`CSCC[C@H](N)C(=O)N1CCC[C@H]1C(=O)N[C@@H](CC(=O)O)C(=O)N[C@H](C(=O)N[C@@H](CC(C)C)C(=O)N[C@@H](Cc1ccccc1)C(=O)N[C@@H](CCC(=O)O)C(=O)NCC(=O)N[C@H](C(=O)O)C(C)C)[C@@H](C)O` has an IC50 of greater than 20 µM.
The IC50 of `CC(C)C[C@H](NC(=O)[C@H](CC(C)C)NC(=O)[C@H](CC(C)C)NC(=O)[C@H](Cc1ccc(O)cc1)NC(=O)[C@H](CC(=O)O)NC(=O)[C@H](C)NC(=O)[C@H](CC(C)C)NC(=O)[C@@H](N)CCCCN)C(=O)N[C@@H](CCC(N)=O)C(=O)O` is reported as greater than 20 µM.
With `CC[C@H](C)[C@H](NC(=O)[C@H](CCC(N)=O)NC(=O)[C@@H](N)Cc1ccccc1)C(=O)N[C@@H](CC(C)C)C(=O)N[C@@H](Cc1c[nH]cn1)C(=O)N[C@@H](CC(=O)O)C(=O)N[C@@H](CCCNC(=N)N)C(=O)N[C@@H](Cc1ccccc1)C(=O)N[C@@H](Cc1ccccc1)C(=O)O` the IC50 was greater than 20 µM.
For `CC(C)C[C@H](NC(=O)[C@@H](NC(=O)[C@@H](NC(=O)[C@H](CO)NC(=O)[C@H](Cc1ccccc1)NC(=O)[C@H](CS)NC(=O)[C@@H](N)CCC(N)=O)C(C)C)C(C)C)C(=O)N[C@@H](CCCNC(=N)N)C(=O)N[C@@H](Cc1ccc(O)cc1)C(=O)O`, the IC50 was greater than 20 µM.

Further values, each from its own experiment
`CSCC[C@H](NC(=O)[C@@H]1CCCN1C(=O)[C@@H]1CCCN1C(=O)[C@H](CCSC)NC(=O)[C@@H]1CCCN1C(=O)[C@@H]1CCCN1C(=O)[C@H](C)NC(=O)[C@H](CO)NC(=O)[C@@H]1CCCN1C(=O)[C@@H](NC(=O)[C@H](CC(C)C)NC(=O)[C@H](CO)NC(=O)CNC(=O)CNC(=O)[C@@H](N)Cc1ccc(O)cc1)C(C)C)C(=O)O` has a Kd of 7.7 µM (Tumor susceptibility gene 101 protein, UEV domain (Homo sapiens, UniProt Q99816); 25 °C).
`O=P(O)(O)C(O)(Cc1cnc2ccccn12)P(=O)(O)O` has an IC50 of greater than 70 µM (Plasmodium falciparum; parasite growth, inhibitor).
For `Cc1cc(O)cc(C)c1C[C@H](N)C(=O)N[C@H](CCCNC(=N)N)C(=O)N[C@@H](Cc1ccccc1)C(=O)N[C@@H](CCCCN)C(=O)NCCNC(=O)[C@H](Cc1ccccc1)NC(=O)[C@H](CC1CCCCC1)NC[C@@H]1Cc2ccccc2CN1C(=O)[C@@H](N)Cc1ccc(O)cc1`, the IC50 was 0.0665 ± 0.0054 µM (muscle contraction, agonist; guinea pig ileum).
For `Cc1cc(Nc2ccc(S(F)(F)(F)(F)F)cc2)n2nc(C(C)(F)F)nc2n1`, the ED90 was 3 mg/kg/day (Plasmodium falciparum; mouse; twice daily dosing).
`CCCN(CCC)c1c([N+](=O)[O-])cc(S(=O)(=O)Nc2ccccc2)cc1[N+](=O)[O-]` gave an IC50 of 9.7 ± 1.1 µM (Vero; viability).
With `Cc1cn([C@@H]2CC[C@H](OC(C(=O)O)P(=O)(O)O)C2)c(=O)[nH]c1=O` (relative stereo) the IC50 was greater than 500 µM (DNA polymerase beta (POLB, Homo sapiens, UniProt P06746); enzyme activity, inhibitor).
The IC50 of `C1CCC2(CC1)CCNCC2` is reported as 0.9 ± 0.1 µM (Matrix protein 2 (Influenza A virus, UniProt P0DOF5); inhibitor).

For quick reference, copied from above (series 1):
With `CC[C@H](C)[C@H](NC(=O)[C@H](CCC(N)=O)NC(=O)[C@@H](N)Cc1ccccc1)C(=O)N[C@@H](CC(C)C)C(=O)N[C@@H](Cc1c[nH]cn1)C(=O)N[C@@H](CC(=O)O)C(=O)N[C@@H](CCCNC(=N)N)C(=O)N[C@@H](Cc1ccccc1)C(=O)N[C@@H](Cc1ccccc1)C(=O)O` the IC50 was greater than 20 µM.
For `CC(C)C[C@H](NC(=O)[C@@H](NC(=O)[C@@H](NC(=O)[C@H](CO)NC(=O)[C@H](Cc1ccccc1)NC(=O)[C@H](CS)NC(=O)[C@@H](N)CCC(N)=O)C(C)C)C(C)C)C(=O)N[C@@H](CCCNC(=N)N)C(=O)N[C@@H](Cc1ccc(O)cc1)C(=O)O`, the IC50 was greater than 20 µM.
